Published values pooled from the literature.
Lines come from different studies, so protocols differ. ± marks the error that the study gave.

For `CCO[C@H]1CCN(Cc2c(OC)cc(C)c3[nH]ccc23)[C@H](c2ccc(C(=O)O)cc2)C1`, “incidence of back pain” read 0% (PNH patients, active haemolysis; oral, 200 mg, 8 weeks, treatment).
For `C[C@@]1(c2cc(NC(=O)c3ccc(C#N)cn3)ccc2F)C=CSC(N)=N1`, the dose-normalised Cmax was 6.04 ng/mL (elderly humans, both sexes, plasma; oral, 150 mg single dose).
Under “median plasma concentration”, `Cc1c2oc3c(C)ccc(C(=O)N[C@@H]4C(=O)N[C@H](C(C)C)C(=O)N5CCC[C@H]5C(=O)N(C)CC(=O)N(C)[C@@H](C(C)C)C(=O)O[C@@H]4C)c3nc-2c(C(=O)N[C@@H]2C(=O)N[C@H](C(C)C)C(=O)N3CCC[C@H]3C(=O)N(C)CC(=O)N(C)[C@@H](C(C)C)C(=O)O[C@@H]2C)c(N)c1=O` is recorded as 9.8 µg/L (children with cancer, plasma; dose not given, 30 min).
The PQ interval of `COc1ccc2c(c1)CN(C(=O)CCN1CCC(Cc3ccccc3)CC1)CC[S@@+]2[O-]` is reported as 89 ± 5 ms (telemetry; conscious male beagle dogs; intravenous, NG, 1 h).
`Cc1ncsc1-c1ccc(CNC(=O)[C@@H]2C[C@@H](O)CN2C(=O)[C@@H](NC(=O)CCCCCCCCCCCC(=O)NCCCCC#Cc2cccc(-c3nn(-c4nc(C(=O)O)cs4)c(CC4CC4)c3Cc3ccc(S(N)(=O)=O)cc3)c2)C(C)(C)C)cc1` — result for tolerability: “not toxic” (Swiss albino mice; intraperitoneal, 5 mg/kg).
`Cc1cc(Nc2cc3ncccc3c(N[C@@H]3C[C@H]4CC[C@@H](C3)N4CCC#N)n2)n[nH]1` has an AUC(0-24) of 126 ng·h/mL (human, plasma; 1000 mg single dose, mean).
With `CCn1ccc2c([C@](O)(c3ccc(C(F)(F)F)nc3)C3CC3)n(C)nc2c1=O` the CL was 20.7 ± 1.81 mL/min/kg (rat Sprague-Dawley male, plasma; intravenous, 1 mg/kg).
`Nc1nc2c(nc([N+](=O)[O-])n2[C@@H]2O[C@H](CO)[C@@H](O)[C@H]2O)c(=O)[nH]1`: “nucleoside remaining fraction” 0.409 (depurination, RP-HPLC; citrate-phosphate buffer 0.5 mM; 1350 min, pH 5, 37 °C).
For `O=Cc1cc2c(cc1F)C(=O)N(C1CCC(=O)NC1=O)C2` (stereo not drawn), the plasma concentration was 0.41 ± 0.26 ng/mL (cynomolgus monkey, male; oral, 0.3 mg/kg parent drug, 4 h).
Under “mean arterial pressure change”, `Cc1c(-c2ccc(N3CCc4cccc(C(=O)Nc5nc6ccccc6s5)c4C3)nc2C(=O)O)cnn1CC12CC3(C)CC(C)(C1)CC(OCCNCC[C@H](O)CO)(C3)C2` is recorded as -18% (beagle dog, male, anaesthetised; intravenous infusion, 0.3 mg/kg/min, 30 min; reference: vehicle).
`Cc1nc2cccc(OCC(C)(C)C(=O)NC(C)C)c2c(N)c1C(=O)O` has an AUC(0-last) ratio of 1.05 ± 0.26 (Sprague-Dawley rat, plasma; oral, 30 mg/kg, day 1; reference: female over male).
`O=C(O)c1cc(O)c2c(c1)C(=O)c1cccc(O[C@@H]3O[C@H](CO)[C@@H](O)[C@H](O)[C@H]3O)c1C2=O` has a cell viability of 104 ± 7.1% (HepaRG co-cultured with HK-2; MTT; 33.33 µM, 24 h; reference: untreated control).
`CCCCC[C@H](O)CC[C@@H]1[C@H]2Cc3cccc(OCC(=O)O)c3C[C@H]2C[C@H]1O`: “geometric mean Cmax” 1.09 ng/mL (LC-MS/MS; Japanese PAH patients under 56.7 kg, plasma; inhaled, 54 µg).
`O=C(O)[C@H]1O[C@@H](Oc2cc(O)c3c(=O)c(O)c(-c4ccc(O)c(O)c4)oc3c2)[C@H](O)[C@@H](O)[C@@H]1O` has a plasma concentration of 707 nM (human plasma; mean).
For `COc1c(O[C@@H]2O[C@H](CO)[C@@H](O)[C@H](O)[C@H]2O)c(C)cc2c1C(=O)c1c(O)cccc1C2=O`, the cell viability was 74.7 ± 6.24% (HepaRG co-cultured with HK-2; MTT; 16.67 µM, 24 h; reference: untreated control).
For `CC(C)(C(=O)N1CCOc2c(C#N)cncc2C1)C(F)F`, “subjects with adverse event” read 0% (measured: abdominal discomfort; human; oral, 20 mg twice daily, 14 days, multiple ascending dose).
Under “drug-related vomiting incidence”, `Cn1cc(Nc2nc(N)nc(-c3cccc(-n4ccc5cc(C6CC6)cc(F)c5c4=O)c3CO)n2)cn1` is recorded as 0% (healthy humans, fed; oral tablet, 300 mg twice daily (multiple dose), 14 (unit not given); reference: subjects).
For `CCCCCCCCC(=O)c1cc(O)c(O)c(O)c1`, the apoptotic cells was 1.14 ± 0.03 (COS-7; 10 µM, 24 h, 0.1% DMSO, unit not given; reference: vehicle control).
With `CN(C)c1ccc(O)c2c1C[C@H]1C[C@H]3[C@H](N(C)C)C(O)=C(C(N)=O)C(=O)[C@@]3(O)C(O)=C1C2=O` the amount permeated was 1.73 nmol (starch gel membrane permeability; Gram-negative envelope surrogate; 200 µM, 60 min, pH 7.4).
`CN(C)CCCNC(=O)/C(=C/CCCCC(=O)NO)COc1cccc2ccccc12` has an MRT(0-inf) of 6.79 h (human; iv, 250 mg/m2, day 1, single dose, mean).
The t1/2 of `C[C@H]1CN(C(=O)CC#N)[C@]12CCN(c1ncnc3[nH]ccc13)C2` is reported as 2.8 h (healthy adults, plasma; oral, 12 mg single dose, geometric mean).
With `CCCCCCCC(=O)c1cc(OC)c(OC)c(OC)c1CC(=O)OCC` the apoptotic cells was 0.96 ± 0.14 (COS-7; 10 µM, 24 h, 0.1% DMSO, unit not given; reference: vehicle control).
`CCc1cc(C(=O)NC)c2nccc(N3CCc4c(cc(Cn5ccnc5)cc4-c4cn(C)nc4C(F)(F)F)C3=O)c2c1` has a body weight of 269 ± 7.9 g (Sprague Dawley rat; oral, 50 mg/kg once daily, day 7, 7-day toxicology study).
The AUC(0-tau) of `Cl.[2H]C([2H])([2H])CC(=O)c1cnc(NC(=O)C2CC2)cc1Nc1cccc(-c2ncn(C([2H])([2H])[2H])n2)c1OC` is reported as 1570 ng·h/mL (geometric mean; human; oral, 20 mg twice daily, day 7, fed, liquid, multiple dose).
`O=Cc1ccc(O)c(O)c1` gave a plasma concentration of 9.9 nM (human plasma; median, both sexes).
`C[C@@H]1CN(c2c(F)c(N)c3c(=O)c(C(=O)O)cn(C4CC4)c3c2F)C[C@H](C)N1` gave an amount permeated of 1.44 nmol (starch gel membrane permeability; Gram-negative envelope surrogate; 200 µM, 60 min, pH 7.4).
For `C=CCN1CC(=O)N2[C@@H](Cc3ccc(O)cc3F)C(=O)N(Cc3cccc(N4CC(N5CCN(CC)CC5)C4)n3)C[C@@H]2N1C(=O)NCc1ccccc1`, “treatment-related ALT increased” read 0% (advanced solid tumour patients; oral, 20 mg twice daily, grade ≥3, dose-escalation).
`CCc1cc2ncc(CN3CCN(c4ccc(C(=O)NC)nc4)CC3)cc2[nH]c1=O`: “Neutrophils count ratio” 0.71 (male rat, blood; oral, 25 mg/kg/day, 4 weeks; reference: vehicle control).
`Cc1c(C(=O)O)ccc2c3n(nc12)[C@@H]1[C@H](C3)N(CC2CC2)[C@@]2(C(=O)Nc3cc(Cl)ccc32)[C@H]1c1cccc(Cl)c1F`: “back pain incidence” 0% (human patients phase Ia; oral, dose not given, grade ≥3, all patients).
The median Tmax of `Cc1ccc(=O)n(-c2ccccc2)c1` is reported as 0.67 h (healthy volunteers, plasma; oral, 600 mg single dose, alone).
`C[C@@H](N)c1cc(Cl)ccc1Cn1c(=S)[nH]c(=O)c2[nH]ccc21` — result for “drug-related adverse events”: 0% (human severe renal impairment; oral, 2.5 mg single dose).
`[18F]c1ccc(-c2ccc3c(c2)[nH]c2ccncc23)cn1` has an SUV of 1.71 ± 0.647 (ex vivo biodistribution; B6SJL mouse, normal, lungs; intravenous, 30 min).
With `O=C(O)/C=C/c1ccc(O)c(O[C@@H]2O[C@H](C(=O)O)[C@@H](O)[C@H](O)[C@H]2O)c1` the plasma concentration was 13.6 nM (human plasma; median).
The ALT of `CCN(Cc1ccc(F)cc1)c1ccc(CO)c(Cl)c1` is reported as 412 U/L (male F344 rat, serum; oral, 100 mg/kg/day, 2 days).
`O=C(O)c1ccc(O)c(O)c1` gave a plasma concentration of 387 nM (human plasma; median, both sexes).
`O=C(O)CCC(=O)O.[2H]C([2H])([2H])Oc1cc(C)c2[nH]ccc2c1CN1CC[C@@H](C2CC2)C[C@H]1c1ccc(C(=O)O)cc1`: “TEAE urinary sediment detected” 0% (healthy Chinese subjects; 600 mg, single ascending dose).
With `O=C(O)CCc1ccc(O)c(O[C@@H]2O[C@H](C(=O)O)[C@@H](O)[C@H](O)[C@H]2O)c1` the plasma concentration was 616 nM (human plasma; mean).
The recovery of `C=CC(=O)Nc1cc(Nc2nccc(-c3cn(C)c4ccccc34)n2)c(OC)cc1N(C)CCN(C)C` is reported as 95.3% (storage stability; human dried blood spot; 10 d, -80 °C, HQC level).
`OC[C@H]1O[C@@H](c2ccc(Cl)c(Cc3ccc(O[C@H]4CCOC4)cc3)c2)[C@H](O)[C@@H](O)[C@@H]1O`: “change in Phosphate” 0 mg/dL (Japanese type 1 diabetes patients, blood; 2.5 mg, day 28; reference: baseline).
`CNCc1ccc(-c2[nH]c3cc(F)cc4c3c2CCNC4=O)cc1` — result for “incidence of AST/ALT increase”: 11.5% (human patients; oral, 600 mg twice daily, grade 3).
`CO[C@@H]1[C@H](OC(=O)N2CC(CCN3CCOCC3)C2)CC[C@]2(CO2)[C@H]1[C@@]1(C)O[C@@H]1CC=C(C)C` — result for “international normalized ratio”: 0 ± 0.04 (humans; subcutaneous, 0.2 mg twice weekly for 4 weeks, day 28; reference: baseline).
The oral bioavailability of `COc1cc2c3c(n(CCCN4CCOCC4)c(=O)c2cc1OC)-c1cc2c(cc1C3=O)OCO2` is reported as 5 to 40% (beagle dog, female, plasma; oral, 1720 mg/m^2, gelatin capsules; reference: intravenous dosing).
`CCn1cc(C(=O)O)c(=O)c2ccc(C)nc21` gave an amount permeated of 1.24 nmol (starch gel membrane permeability; Gram-negative envelope surrogate; 200 µM, 10 min, pH 7.4).
`CCO[C@H]1CCN(Cc2c(OC)cc(C)c3[nH]ccc23)[C@H](c2ccc(C(=O)O)cc2)C1` has an AUC(0-7 h) of 0.76 µM·h (C57BL/6 mouse; oral, 10 mg/kg, dose-normalised to 1 mg/kg).
With `O=c1c(O)c(-c2cc(O)c(O)c(O)c2)oc2cc(O)cc(O)c12` the plasma concentration was 841 nM (human plasma; mean, both sexes).
`CN(C)[C@@H]1C(O)=C(C(N)=O)C(=O)[C@@]2(O)C(O)=C3C(=O)c4c(O)cccc4[C@@](C)(O)[C@H]3C[C@@H]12` gave an amount permeated of 3.07 nmol (starch gel membrane permeability; Gram-negative envelope surrogate; 200 µM, 60 min, pH 7.4).
`COc1ccc2c(=O)n(C)c(-c3ccccc3)nc2c1` has a tissue/plasma ratio of 74.9 (Sprague-Dawley rat, male, stomach; oral, 30 mg/kg, 2 h; reference: stomach over plasma).
The unbound AUC(0-12) of `CCO[C@H]1CCN(Cc2c(OC)cc(C)c3[nH]ccc23)[C@H](c2ccc(C(=O)O)cc2)C1` is reported as 4440 ng·h/mL (human mild hepatic impairment, plasma; oral, 200 mg single dose, geometric mean).

A few entries again:
The ALT of `CCN(Cc1ccc(F)cc1)c1ccc(CO)c(Cl)c1` is reported as 412 U/L (male F344 rat, serum; oral, 100 mg/kg/day, 2 days).
`CCO[C@H]1CCN(Cc2c(OC)cc(C)c3[nH]ccc23)[C@H](c2ccc(C(=O)O)cc2)C1` has an AUC(0-7 h) of 0.76 µM·h (C57BL/6 mouse; oral, 10 mg/kg, dose-normalised to 1 mg/kg).
`O=C(O)c1cc(O)c2c(c1)C(=O)c1cccc(O[C@@H]3O[C@H](CO)[C@@H](O)[C@H](O)[C@H]3O)c1C2=O` has a cell viability of 104 ± 7.1% (HepaRG co-cultured with HK-2; MTT; 33.33 µM, 24 h; reference: untreated control).
With `O=C(O)/C=C/c1ccc(O)c(O[C@@H]2O[C@H](C(=O)O)[C@@H](O)[C@H](O)[C@H]2O)c1` the plasma concentration was 13.6 nM (human plasma; median).
With `CCn1ccc2c([C@](O)(c3ccc(C(F)(F)F)nc3)C3CC3)n(C)nc2c1=O` the CL was 20.7 ± 1.81 mL/min/kg (rat Sprague-Dawley male, plasma; intravenous, 1 mg/kg).
For `C[C@@]1(c2cc(NC(=O)c3ccc(C#N)cn3)ccc2F)C=CSC(N)=N1`, the dose-normalised Cmax was 6.04 ng/mL (elderly humans, both sexes, plasma; oral, 150 mg single dose).
`CN(C)[C@@H]1C(O)=C(C(N)=O)C(=O)[C@@]2(O)C(O)=C3C(=O)c4c(O)cccc4[C@@](C)(O)[C@H]3C[C@@H]12` gave an amount permeated of 3.07 nmol (starch gel membrane permeability; Gram-negative envelope surrogate; 200 µM, 60 min, pH 7.4).
